Measured values collected from several papers.
Each line is one published result; not all experiments were run side by side. ± gives the spread as reported.
Chain of UniProt O60285 (whole entry, looked up): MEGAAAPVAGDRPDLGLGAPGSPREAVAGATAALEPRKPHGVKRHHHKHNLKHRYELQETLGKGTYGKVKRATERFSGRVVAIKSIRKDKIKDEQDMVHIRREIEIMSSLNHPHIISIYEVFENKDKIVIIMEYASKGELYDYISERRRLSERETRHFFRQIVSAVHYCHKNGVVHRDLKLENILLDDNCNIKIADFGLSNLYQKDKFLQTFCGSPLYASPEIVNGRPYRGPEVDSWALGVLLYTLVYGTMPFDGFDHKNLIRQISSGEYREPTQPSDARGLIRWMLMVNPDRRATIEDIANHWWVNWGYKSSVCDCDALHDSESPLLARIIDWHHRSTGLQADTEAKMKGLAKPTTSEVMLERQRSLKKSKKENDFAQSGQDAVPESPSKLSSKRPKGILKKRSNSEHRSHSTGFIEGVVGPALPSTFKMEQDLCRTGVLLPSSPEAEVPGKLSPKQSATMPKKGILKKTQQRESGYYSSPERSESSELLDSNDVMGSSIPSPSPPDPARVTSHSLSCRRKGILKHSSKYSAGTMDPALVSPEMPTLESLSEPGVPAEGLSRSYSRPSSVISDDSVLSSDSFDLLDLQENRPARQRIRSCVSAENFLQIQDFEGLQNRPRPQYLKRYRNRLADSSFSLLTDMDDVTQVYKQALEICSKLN
Chain of UniProt Q9UBS5 (whole entry, looked up): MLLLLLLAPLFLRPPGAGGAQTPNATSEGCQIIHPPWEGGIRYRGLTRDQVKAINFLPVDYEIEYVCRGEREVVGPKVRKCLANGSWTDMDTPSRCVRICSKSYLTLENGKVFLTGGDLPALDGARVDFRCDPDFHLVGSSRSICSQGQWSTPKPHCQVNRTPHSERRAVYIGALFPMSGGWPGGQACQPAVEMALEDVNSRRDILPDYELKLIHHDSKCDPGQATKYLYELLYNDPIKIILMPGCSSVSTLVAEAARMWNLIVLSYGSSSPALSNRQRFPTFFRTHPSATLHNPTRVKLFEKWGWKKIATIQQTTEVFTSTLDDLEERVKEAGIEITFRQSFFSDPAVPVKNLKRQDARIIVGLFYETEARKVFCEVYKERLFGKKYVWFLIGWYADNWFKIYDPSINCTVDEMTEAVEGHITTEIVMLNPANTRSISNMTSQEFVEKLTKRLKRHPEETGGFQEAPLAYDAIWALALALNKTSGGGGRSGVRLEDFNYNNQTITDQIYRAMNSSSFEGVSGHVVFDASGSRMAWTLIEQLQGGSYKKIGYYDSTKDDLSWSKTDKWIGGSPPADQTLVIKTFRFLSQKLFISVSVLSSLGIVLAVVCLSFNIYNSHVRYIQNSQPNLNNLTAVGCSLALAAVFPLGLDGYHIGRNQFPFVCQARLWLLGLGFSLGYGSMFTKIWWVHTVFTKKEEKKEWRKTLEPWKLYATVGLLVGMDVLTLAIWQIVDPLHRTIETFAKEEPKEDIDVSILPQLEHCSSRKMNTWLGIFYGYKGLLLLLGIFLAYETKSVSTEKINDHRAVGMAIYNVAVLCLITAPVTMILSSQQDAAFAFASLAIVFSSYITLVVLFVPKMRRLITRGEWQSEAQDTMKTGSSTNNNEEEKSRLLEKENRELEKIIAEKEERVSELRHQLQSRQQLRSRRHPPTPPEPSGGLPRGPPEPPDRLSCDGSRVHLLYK
Chain of UniProt Q6PHR2 (whole entry, looked up): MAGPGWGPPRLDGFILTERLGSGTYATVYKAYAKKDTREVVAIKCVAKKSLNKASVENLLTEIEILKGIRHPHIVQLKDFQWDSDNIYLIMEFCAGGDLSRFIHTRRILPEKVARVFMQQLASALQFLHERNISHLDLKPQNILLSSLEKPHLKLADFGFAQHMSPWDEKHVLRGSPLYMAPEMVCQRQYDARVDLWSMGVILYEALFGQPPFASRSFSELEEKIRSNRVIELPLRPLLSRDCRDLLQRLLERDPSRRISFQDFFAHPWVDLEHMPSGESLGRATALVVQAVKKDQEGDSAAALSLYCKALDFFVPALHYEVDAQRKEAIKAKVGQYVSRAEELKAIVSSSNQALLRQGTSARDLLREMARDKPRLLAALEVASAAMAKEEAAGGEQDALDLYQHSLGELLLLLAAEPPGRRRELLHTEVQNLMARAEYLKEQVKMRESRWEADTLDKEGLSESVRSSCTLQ
Chain of UniProt O43781 (whole entry, looked up): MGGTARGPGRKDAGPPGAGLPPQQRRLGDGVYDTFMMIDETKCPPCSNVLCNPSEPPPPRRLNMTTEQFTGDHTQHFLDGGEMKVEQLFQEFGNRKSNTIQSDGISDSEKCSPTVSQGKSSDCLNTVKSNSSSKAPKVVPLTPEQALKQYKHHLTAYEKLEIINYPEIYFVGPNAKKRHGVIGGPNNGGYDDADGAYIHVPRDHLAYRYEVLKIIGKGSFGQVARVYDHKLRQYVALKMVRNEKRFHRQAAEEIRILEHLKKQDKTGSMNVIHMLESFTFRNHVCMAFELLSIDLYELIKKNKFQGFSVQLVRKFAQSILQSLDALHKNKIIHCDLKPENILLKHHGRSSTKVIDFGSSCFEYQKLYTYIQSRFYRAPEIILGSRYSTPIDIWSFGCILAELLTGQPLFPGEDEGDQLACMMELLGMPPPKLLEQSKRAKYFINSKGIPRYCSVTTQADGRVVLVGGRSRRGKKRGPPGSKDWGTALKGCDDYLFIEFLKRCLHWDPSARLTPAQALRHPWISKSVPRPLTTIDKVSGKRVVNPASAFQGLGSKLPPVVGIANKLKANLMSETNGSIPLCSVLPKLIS
Chain of UniProt P15144 (whole entry, looked up): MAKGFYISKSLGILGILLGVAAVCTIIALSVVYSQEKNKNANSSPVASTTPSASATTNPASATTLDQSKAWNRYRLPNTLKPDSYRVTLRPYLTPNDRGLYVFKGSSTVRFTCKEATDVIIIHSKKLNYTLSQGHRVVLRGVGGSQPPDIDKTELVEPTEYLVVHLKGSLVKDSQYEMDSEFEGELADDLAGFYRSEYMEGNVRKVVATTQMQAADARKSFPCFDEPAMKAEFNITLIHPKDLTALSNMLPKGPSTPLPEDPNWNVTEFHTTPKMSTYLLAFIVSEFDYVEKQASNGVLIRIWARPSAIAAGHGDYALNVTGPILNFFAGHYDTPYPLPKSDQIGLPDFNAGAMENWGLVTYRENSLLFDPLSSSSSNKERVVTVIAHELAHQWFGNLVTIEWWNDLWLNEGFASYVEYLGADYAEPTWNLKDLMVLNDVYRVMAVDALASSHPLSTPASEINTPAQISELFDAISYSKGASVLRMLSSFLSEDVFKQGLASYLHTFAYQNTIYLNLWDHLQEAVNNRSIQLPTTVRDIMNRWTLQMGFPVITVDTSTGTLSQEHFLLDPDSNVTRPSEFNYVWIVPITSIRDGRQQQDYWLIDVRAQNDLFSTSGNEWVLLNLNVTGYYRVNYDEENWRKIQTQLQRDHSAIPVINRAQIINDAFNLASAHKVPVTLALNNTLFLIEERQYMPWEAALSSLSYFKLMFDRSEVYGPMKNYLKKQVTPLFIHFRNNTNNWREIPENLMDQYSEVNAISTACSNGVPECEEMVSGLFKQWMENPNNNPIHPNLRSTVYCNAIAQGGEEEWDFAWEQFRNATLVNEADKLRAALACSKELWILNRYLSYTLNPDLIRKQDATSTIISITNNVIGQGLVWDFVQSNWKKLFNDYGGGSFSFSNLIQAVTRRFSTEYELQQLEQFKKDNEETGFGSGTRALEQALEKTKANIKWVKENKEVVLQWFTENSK
Chain of UniProt O42275 (whole entry, looked up): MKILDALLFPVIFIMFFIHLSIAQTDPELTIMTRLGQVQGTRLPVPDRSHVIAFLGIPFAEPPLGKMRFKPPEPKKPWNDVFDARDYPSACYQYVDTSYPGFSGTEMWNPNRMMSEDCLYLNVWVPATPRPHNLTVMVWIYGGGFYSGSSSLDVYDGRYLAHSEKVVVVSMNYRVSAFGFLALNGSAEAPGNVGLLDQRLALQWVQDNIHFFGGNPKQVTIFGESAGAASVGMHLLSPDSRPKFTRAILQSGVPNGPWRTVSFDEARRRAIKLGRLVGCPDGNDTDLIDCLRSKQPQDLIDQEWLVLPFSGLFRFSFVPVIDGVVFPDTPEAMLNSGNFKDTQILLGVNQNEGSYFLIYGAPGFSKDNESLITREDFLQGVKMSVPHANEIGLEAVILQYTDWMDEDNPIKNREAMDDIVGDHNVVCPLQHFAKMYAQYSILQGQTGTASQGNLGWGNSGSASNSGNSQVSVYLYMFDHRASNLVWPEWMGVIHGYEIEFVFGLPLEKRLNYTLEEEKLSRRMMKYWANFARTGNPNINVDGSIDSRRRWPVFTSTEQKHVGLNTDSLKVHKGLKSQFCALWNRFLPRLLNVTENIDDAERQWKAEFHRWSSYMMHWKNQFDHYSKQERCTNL
Chain of UniProt O43148 (whole entry, looked up): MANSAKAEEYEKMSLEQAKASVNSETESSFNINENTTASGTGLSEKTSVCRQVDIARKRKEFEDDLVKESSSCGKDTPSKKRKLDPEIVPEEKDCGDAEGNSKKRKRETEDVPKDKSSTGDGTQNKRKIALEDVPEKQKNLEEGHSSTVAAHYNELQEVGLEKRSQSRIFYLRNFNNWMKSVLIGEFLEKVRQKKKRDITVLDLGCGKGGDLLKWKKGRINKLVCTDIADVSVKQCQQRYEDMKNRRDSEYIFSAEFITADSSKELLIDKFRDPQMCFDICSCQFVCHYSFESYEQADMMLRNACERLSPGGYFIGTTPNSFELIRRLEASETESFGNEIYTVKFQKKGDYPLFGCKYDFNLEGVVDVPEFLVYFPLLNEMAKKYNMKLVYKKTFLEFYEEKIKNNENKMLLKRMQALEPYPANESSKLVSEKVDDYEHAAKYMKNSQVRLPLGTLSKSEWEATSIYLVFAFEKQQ

For `CN(C)[C@H]1C[C@@]23CC[C@@]4(O2)C(=CC[C@]2(C)[C@@H](c5ccc6ccncc6c5)CC[C@H]24)C=C3[C@@H](O)[C@@H]1O`, the inhibition was -7.3% (NUAK1 (Homo sapiens, UniProt O60285); ATP probe labelling, inhibitor, KiNativ profiling; 0.1 µM).
`O=C(CN1CN(c2ccccc2)C2(CCN(C(=O)c3cnc4[nH]ncc4c3)CC2)C1=O)NCC(F)(F)F` gave an inhibition of under 50% (ULK3 (Homo sapiens, UniProt Q6PHR2); inhibitor; concentration not given).
For `O=S(=O)(F)CCc1cn(-c2cnc3ccccc3c2)nn1`, the inhibition was 47 ± 2% (ache (Electrophorus electricus, UniProt O42275); 20 µM).
For `O=C(NC1CCN(c2ncnc3[nH]cnc23)CC1)c1cccc(NS(=O)(=O)c2ccc(C(F)(F)F)cc2)c1`, the inhibition was 6.52% (RNMT (Homo sapiens, UniProt O43148); enzyme activity, inhibitor; 50 µM).
`CN[C@@H]1[C@H](O)[C@H](NC)[C@H]2O[C@]3(O)[C@H](O[C@@H]2[C@H]1O)O[C@H](C)C[C@H]3NC(=O)Cc1ccc(Cl)cn1` gave an inhibition of 19% (GABBR1 (Homo sapiens, UniProt Q9UBS5); 10 µM).
`COc1ccccc1N1CCN(CCCCN2CCCc3ccccc3C2=O)CC1` gave an inhibition of -2% (HTR4 (Homo sapiens, UniProt Q13639); radioligand binding; concentration not given).
With `CN(C)c1ncnc2c1ncn2[C@@H]1O[C@H](CCl)[C@@H](NC(=O)[C@H](N)CSC(c2ccccc2)c2ccccc2)[C@H]1O` the inhibition was 38.9% (Aminopeptidase N (ANPEP, Homo sapiens, UniProt P15144); enzyme activity, inhibitor, fluorescence; 10 µM).
For `C[C@H](NCc1ccc(-c2ccc(C(F)(F)F)cc2)cc1)C(N)=O`, the inhibition was 10% (SRC (Homo sapiens, UniProt P12931); cell-free assay, competition with immobilised ligand; 1 µM).
The inhibition of `CC(C)[C@H]1NC(=O)C[C@H]2/C=C/CCSSC[C@@H](NC1=O)C(=O)N[C@H](Cc1cccc3ccccc13)C(=O)NCC(=O)O2` is reported as -6.6% (DYRK3 (Homo sapiens, UniProt O43781); enzyme activity, inhibitor; 10 µM).
The inhibition of `CC(=O)NC[C@@H]1[C@@H](O)C[C@H]2[C@H](O)C[C@@H](CO)N12` is reported as 38.8% (human placental β-N-acetylglucosaminidase; 0.0428 µM, run 1, together with: p-nitrophenyl GlcNAc).
`O=C(c1cc(Cc2n[nH]c(=O)c3ccccc23)ccc1F)N1CC(CNC2CC2)C1` has an inhibition of 37% (MAOB (Homo sapiens, UniProt P27338); enzyme activity, inhibitor; 10 µM).
`CS(C)(=O)=Nc1ccc(-c2ccc(-c3nc4cc(O[C@@H]5CO[C@H]6[C@@H]5OC[C@H]6O)[nH]c4cc3F)cc2)cc1` gave an inhibition of 6% (SRPK2 (Homo sapiens, UniProt P78362); enzyme activity, inhibitor; 10 µM).

Repeated from above:
The inhibition of `CC(C)[C@H]1NC(=O)C[C@H]2/C=C/CCSSC[C@@H](NC1=O)C(=O)N[C@H](Cc1cccc3ccccc13)C(=O)NCC(=O)O2` is reported as -6.6% (DYRK3 (Homo sapiens, UniProt O43781); enzyme activity, inhibitor; 10 µM).
